Results pooled from the literature.
Numbered parts are unrelated; each lists some results of a single study.

Sample 1
Target: Replicase polyprotein 1ab, nsp13 helicase (rep, Severe acute respiratory syndrome coronavirus 2, UniProt P0DTD1)
Action: inhibitor
Tested at: 20 µM
Compound | inhibition
CCCCOC(=O)c1ccc(O)cc1 | -4.97%
CC(C)c1cc(C(C)C)c(-c2csc(N(CCN(C)C)Cc3cccnc3)n2)c(C(C)C)c1 | 1.45%
Cc1c(-c2ccccc2)oc2c(C(=O)OCCN3CCCCC3)cccc2c1=O | 14.1%
CCOc1ccc(Cc2cc([C@@H]3O[C@H](SC)[C@@H](O)[C@H](O)[C@H]3O)ccc2Cl)cc1 | 7.54%
N=C(N)NCCSSCCN=C(N)N | 5.35%
OCCN1CCN(CCCN2c3ccccc3Sc3ccc(Cl)cc32)CC1 | 7.5%
CNCC[C@H](Oc1cccc2ccccc12)c1cccs1 | 5.55%
Cc1nc(N)sc1-c1ccnc(Nc2ccc(N3CCOCC3)cc2)n1 | 10.5%
O=C(O)c1cc(=O)c2ccccc2o1 | -3.35%
C[N+]1(CCCCC[N+]2(C)CCCC2)CCCC1 | 2.4%
CN1CCN(c2ccc3nc(-c4c(N)c5c(F)cccc5[nH]c4=O)[nH]c3c2)CC1 | 31.4%
NC(=O)c1cccc(N)c1 | 2.97%
O=C(Nc1ccccc1)[C@@]12C[C@@H]1/C(=N\O)c1ccccc1O2 | 6.21%
CC#CCC(C)[C@H](O)/C=C/[C@@H]1[C@H]2C/C(=C/CCCC(=O)O)C[C@H]2C[C@H]1O (some centres unmarked) | 10%
Cc1ncc(C)n2nc([C@@H]3C[C@H]3c3nc4c5cccnc5ccn4c3C)nc12 | 1.27%
Oc1cccc(Nc2ccc(Nc3cccc(O)c3)nn2)c1 | 5.83%
Cc1ncc(-c2ccnc(Nc3ccc(S(C)(=O)=O)cc3)n2)n1C(C)C | 9.5%
O=C(O)c1cc2cc(Cc3cccnc3)ccc2o1 | 5.31%
CN1C[C@@H]2c3ccccc3Oc3ccc(Cl)cc3[C@H]2C1 (racemic) | 2.66%
N#C/C(=C\c1ccc(O)c(O)c1)C(=O)OCCc1cccs1 | 8.66%
CC(=O)N[C@H]1[C@@H](O)[C@H](O)[C@@H](CO)O[C@@H]1O | 7.36%
O=C1C=CC[C@@H]2[C@H]3CCCN4CCC[C@@H](CN12)[C@@H]34 | -2.53%
Cc1sc2c(c1C)C(c1ccc(Cl)cc1)=N[C@@H](CC(N)=O)c1nnc(C)n1-2 | 6%
Cc1ccc(C(=O)N(CCCN)[C@@H](c2nc3cc(Cl)ccc3c(=O)n2Cc2ccccc2)C(C)C)cc1 | 5.99%
O=C(NCCCN1CCOCC1)c1cnn2c(-c3ccccc3)cc(-c3ccccc3)nc12 | 4.63%

Sample 2
Target: RNA binding protein fox-1 homolog 2, RRM domain, GST-SBP tag (RBFOX2, Homo sapiens, UniProt O43251-10, residues 100-194)
Method: RNA Bind-n-Seq
Molecule type: RNA
Sample: in vitro
Tested at: 365 nM
Setting: natural RNA segment, single round, ends assumed
Reference: no-protein control
Direction: higher = stronger binding
Target sequence (chain): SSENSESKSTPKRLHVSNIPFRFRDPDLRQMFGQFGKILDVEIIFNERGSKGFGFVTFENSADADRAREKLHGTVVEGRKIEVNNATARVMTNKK
Strand | RBNS enrichment (R)
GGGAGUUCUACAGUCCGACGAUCCCCUCAGCAGCCGAUGCAGAGGAUGAAGAGGAUUAUGACUCCUAGCGCCCUGUGCCCCUGUACCCCAGCCAUGCUCUCUUCUAGUUAGUAUUAAUUGCUUUGGGGAGAGGUGGAAUUCUCGGGUGCCAA | 0.249
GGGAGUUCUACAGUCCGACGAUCCCUUUUGAAAAGCUGUGUCGUGUUCCCUGUGAAACUGAGCAGGUGUGUGUUGGCGCGCUAAGUGCCACAUGCUUGUGUGUAGAGGAGGAGGUGGCCCUGCCGGCUCCGCGUGGAAUUCUCGGGUGCCAA | 0.246
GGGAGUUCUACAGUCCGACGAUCUUUGAAGCCCACAGUUUUAGUUGGUACUGACGGAGGGGAGAUUGAGCGAUGCUCUUUCCUUCUCUGUUUAGGAAGAAGUGGUACUAGUGUGGUGUGUUUGCCUGGAAGUCUGGAAUUCUCGGGUGCCAA | 0.378
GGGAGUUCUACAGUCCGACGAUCCGCAGCCGUGGACGAUUCUCCAGGACUCUUUUUUUACCUUGAGCACUUGCCUCGUGAGACUUCAUAGAACAGUGGUUUACUGUCCCCCCCUUCUCACCUCCUCAUUCUCUUGGAAUUCUCGGGUGCCAA | 0.505
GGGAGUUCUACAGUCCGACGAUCUUAAAGAGAGUUUUUUGGGGCCACCAAAUAUUUUGGAUCAUGCAGAGAAUAUAUAUUGUACUGUAGUAAUUUUGUAUUUACAUUUGUAUGAUGUGACAUAAUAGAUGUGAUGGAAUUCUCGGGUGCCAA | 0.666
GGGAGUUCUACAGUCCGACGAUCGACAGAAUGUCAUUCUCCUUCAGUUGCUGCCAUUUUAUCUCCUCCUGAAAGCUAAAGGCUCACCACUUGAUGGUGCCUAAAGUGGGUCGGUUACCCGAGUGAGCGGCUGCUGGAAUUCUCGGGUGCCAA | 0.324
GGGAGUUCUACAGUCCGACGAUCCCAGGGACUGUCUACAGCAGCCACAGCCACUGUGCACAAUGGACAGGGUGCCCAGGUCCUCGGAGCUUUGGCUUGGCAUCUUGGGUUCAUUUGAUUUUUUUUUUUAAAGAUGGAAUUCUCGGGUGCCAA | 0.388
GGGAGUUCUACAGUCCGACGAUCACCGUCCUGGUUUAGUGGAUGGGGAGGAUGGGGUGACGGCUUACCAGCUGUAUUAUGUACUGUACUGUACUAGGAGUUCCCUAGUUUGCUAGGUGAGUUUCAUUCUGGAAUGGAAUUCUCGGGUGCCAA | 0.303

Sample 3
Target: Replicase polyprotein 1ab, main protease (rep, Severe acute respiratory syndrome coronavirus 2, UniProt P0DTD1)
Read-out: enzyme activity
Tested at: 20 µM
Setting: with DTT
SMILES | inhibition [%]
O=c1c2ccccc2sn1-c1ccccc1 | 98.2
Cc1ccccc1N(C)C(=O)c1ccc([S+]([O-])c2nccs2)c([N+](=O)[O-])c1 (centres unmarked) | 73.8
Nc1ccc(O)c2ncccc12 | 98.2
CCOC(=O)c1c(N)sc(-c2ccccc2)c1C | 96

Sample 4
Target: Sal-like protein 4, full length isoform A (SALL4, Homo sapiens, UniProt Q9UJQ4, residues 1-1053)
Chain of UniProt Q9UJQ4 (whole entry, looked up): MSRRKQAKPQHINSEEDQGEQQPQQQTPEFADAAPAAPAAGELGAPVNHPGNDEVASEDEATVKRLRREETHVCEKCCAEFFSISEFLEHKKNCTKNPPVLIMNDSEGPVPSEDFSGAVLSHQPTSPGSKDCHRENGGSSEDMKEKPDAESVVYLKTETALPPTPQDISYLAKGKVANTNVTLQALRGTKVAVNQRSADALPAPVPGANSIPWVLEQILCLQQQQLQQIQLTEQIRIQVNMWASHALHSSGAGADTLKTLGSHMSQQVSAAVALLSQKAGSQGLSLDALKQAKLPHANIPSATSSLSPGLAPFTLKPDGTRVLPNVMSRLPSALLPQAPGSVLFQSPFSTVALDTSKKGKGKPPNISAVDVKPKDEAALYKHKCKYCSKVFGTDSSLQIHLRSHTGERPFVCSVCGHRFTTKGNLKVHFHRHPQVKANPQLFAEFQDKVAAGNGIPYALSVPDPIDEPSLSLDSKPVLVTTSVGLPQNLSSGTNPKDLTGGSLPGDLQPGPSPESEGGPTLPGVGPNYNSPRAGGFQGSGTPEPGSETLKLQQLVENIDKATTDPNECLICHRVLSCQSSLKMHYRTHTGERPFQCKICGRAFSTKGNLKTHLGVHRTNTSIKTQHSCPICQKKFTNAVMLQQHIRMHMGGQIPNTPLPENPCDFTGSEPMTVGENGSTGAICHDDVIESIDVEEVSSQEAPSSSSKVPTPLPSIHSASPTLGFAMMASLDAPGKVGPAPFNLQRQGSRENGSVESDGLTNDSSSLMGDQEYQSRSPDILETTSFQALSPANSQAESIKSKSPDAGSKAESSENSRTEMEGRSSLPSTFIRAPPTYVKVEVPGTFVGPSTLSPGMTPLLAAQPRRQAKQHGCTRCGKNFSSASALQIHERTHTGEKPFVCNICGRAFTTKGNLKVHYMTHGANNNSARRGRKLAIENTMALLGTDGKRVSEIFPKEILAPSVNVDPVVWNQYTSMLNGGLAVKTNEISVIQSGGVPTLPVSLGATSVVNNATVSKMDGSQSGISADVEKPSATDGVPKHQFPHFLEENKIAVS
Method: universal PBM
Molecule type: double-stranded DNA, one strand shown
Sample: in vitro
Tested at: 600 nM
Setting: 8-mer, flanks averaged, mean of replicates
Direction: higher = stronger binding
Strand | E-score
CACCAAAC | 0.00228
CATTAAAC | 0.291
ACTTTAGC | 0.144
GCCTACTA | -0.0731
ATCAACGC | 0.161
ACAGCTTA | 0.0843
TCAACGGA | -0.0485
CTTGAGCC | -0.142

Sample 5
Cell line: HEK-293T/ACE2
Tested at: concentration not given
Time: 16 (unit not given)
Reference: vehicle
Compound | viability
COCCc1ccc(OCC(O)CNC(C)C)cc1 (centres unmarked) | 105%
CCCc1nc2c(C)cc(-c3nc4ccccc4n3C)cc2n1Cc1ccc(-c2ccccc2C(=O)O)cc1 | 101%
CCn1nc(C(=O)O)c(=O)c2cc3c(cc21)OCO3 | 101%
Cc1ccc(=O)n(-c2ccccc2)c1 | 98.2%

Sample 6
Target: Max-binding protein MNT, bHLH-zipper, MAX partner unstated (MNT, Homo sapiens, UniProt Q99583, residues 220-300)
Method: protein-binding microarray
Molecule type: double-stranded DNA, one strand shown
Sample: in vitro
Tested at: not given
Setting: k-mer, scored over probes, only values ≥0.25
Direction: higher = stronger binding
Residues (chain): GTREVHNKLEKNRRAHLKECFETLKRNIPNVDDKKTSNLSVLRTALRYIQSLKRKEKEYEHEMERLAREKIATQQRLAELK
Strand | E-score
CAACGTGC | 0.448
CATGCACC | 0.382
CTCCCCGC | 0.253
AAAGCACA | 0.252
ACGTGTGA | 0.405
CACGTGAC | 0.497
CGTGCTTC | 0.364

Some of these lines once more (sample 1):
Compound | inhibition
CC#CCC(C)[C@H](O)/C=C/[C@@H]1[C@H]2C/C(=C/CCCC(=O)O)C[C@H]2C[C@H]1O (some centres unmarked) | 10%
Cc1ncc(C)n2nc([C@@H]3C[C@H]3c3nc4c5cccnc5ccn4c3C)nc12 | 1.27%
Oc1cccc(Nc2ccc(Nc3cccc(O)c3)nn2)c1 | 5.83%
Cc1ncc(-c2ccnc(Nc3ccc(S(C)(=O)=O)cc3)n2)n1C(C)C | 9.5%
O=C(O)c1cc2cc(Cc3cccnc3)ccc2o1 | 5.31%
